# Assay results gathered from unrelated publications.
# Each line is one published result; not all experiments were run side by side. Several values in a cell are separate wells, animals, samples, runs or records. Numbers after ± are the reported error.
SMILES,assay,system,setting,scale,endpoint,result
CN1CCC[C@]1(C)/C=C/S(=O)(=O)NC(=O)Nc1c2c(cc3c1CCC3)CCC2,"item: Headache, possibly related",human,"oral, 100 mg twice daily, 14 days, multiple ascending dose",,subjects with adverse event,0%
N#C[C@@H]1CC(F)(F)CN1C(=O)CNC(=O)c1ccnc2c(NC(=O)[C@@H](N)CCCCNC(=O)CCOCCOCCOCCOCCOCCOCCNC(=O)CN3CCN(CC(=O)[O-])CCN(CC(=O)[O-])CCN(CC(=O)[O-])CC3)cccc12.[177Lu+3],,human serum,"24 h, 37 °C, 177Lu-labelled",,radiochemical stability,99 ± 1.5%
O=C(Nc1cnccc1-c1ccc([18F])nc1)c1ccnc(NC(=O)C2CC2)c1,,"mice, transgenic, GSK-3β, early-stage, feces","intravenous, dose not given, 120 min",,SUV,8.82
Cl.NCc1ccc2c(c1)CN(C1CCC(=O)NC1=O)C2=O (stereo not drawn),,"male CD-1 mouse, whole blood",3 h,,remaining compound,> 95%
CC(C)(O)c1ncc([S@](N)(=O)=NC(=O)Nc2c3c(cc4c2CCC4)CCC3)s1,item: Vascular disorders,healthy human volunteers,"oral, dose not given, 14 days, multiple dose, all active arms",,subjects with adverse events,13%
CCCCN1C(=O)c2cccc3c(NCCCCCCCCN4CCOCC4)ccc(c23)C1=O,,dioxane,,,Stokes shift,88 nm
Cc1nc(N)nc2c1C(=O)N[C@@H](c1ccc(F)cc1-c1cccc(O[11CH3])n1)C2,ex vivo biodistribution,"mice, U87 subcutaneous xenograft, bone","60 min post-injection, baseline, vehicle pre-treatment",,SUV,0.8 ± 0.4
CCCCN1C(=O)c2cccc3c(NCCCCN4CCOCC4)ccc(c23)C1=O,,water,pH 6.0,,Stokes shift,105 nm
CNc1cc(N)c(C(N)=O)c[n+]1C,"substrate, item: methylated product","rats, plasma","oral, 30 mg/kg, 24.0 h",,plasma concentration of product,13.8 nM and 11.2 nM
C#CCCCC(F)/C=C/C(=O)NC1(c2ccc(-c3nc4ccn5c(=O)[nH]nc5c4cc3-c3ccccc3)cc2)CCC1 (stereo not drawn),,"microsomes, liver, mouse CD-1","1 µM, pH 7.4, 37 °C, phosphate buffer 100 mM, together with: NADPH",,first-order rate constant,-0.045 ± 0.004 min⁻¹
CC(C)(C)NCC(SS(=O)(=O)O)c1ccccc1 (stereo not drawn),,"Swiss Webster mice, Schistosoma mansoni-infected","100 mg/kg x 2 doses from day 42 post-infection, perfusion day 56 post-infection",baseline: vehicle,body weight decrease,-5%
OC1(C(F)(F)F)CCN(c2nc(Nc3ccnc(C(F)(F)F)c3)nc(-c3cccc(C(F)(F)F)n3)n2)C1 (stereo not drawn),,"Sprague-Dawley rat, plasma","intravenous, 1 mg/kg",,C0,321 ng/mL
C=CC(=O)Nc1cc(Nc2nccc(-c3c[nH]c4ccccc34)n2)c(OC)cc1N(C)CCN(C)C,storage stability,human dried blood spot,"30 d, -80 °C, HQC level",,recovery,101%
Nc1ncnc2[nH]c(/C=C/c3ccc(Cl)cc3)nc12,HPLC,solution,after 1 h light exposure,,purity,95.5%
N[C@@H](CNC(=O)N[C@@H](CS)C(=O)NCC(=O)O)C(=O)O,,"mouse C57BL/6, brain homogenate","intraperitoneal, 500 mg/kg, 2 h",,brain exposure per dose,14.7 ± 6.68 µM·h/dose
O=C(O)c1c(O)cc(O[C@@H]2O[C@H](CO)[C@@H](O)[C@H](O)[C@H]2O)cc1/C=C/c1ccccc1,,FVB mouse,"40 mg/kg, 2 weeks",baseline: vehicle,serum ALT,no effect
CN(O)C(=O)CCC(=O)NCCCN(CCCCN(CCCNC(=O)CCC(=O)N(C)O)C(=O)CCC(=O)N(C)O)C(=O)CCC(=O)N(C)O.[89Zr],,mouse plasma,"7 d, 37 °C",,intact complex,100%
COC(=O)C(C)n1nc(Cn2cc3cc(OCC[18F])c(Cl)cc3n2)c2ccccc2c1=O (racemic),PET,C57BL/6 mouse male,40 min,,brain uptake,4.1 %ID/g
C=CC(=O)N1CCC[C@@H](c2ccc(C(N)=O)c3[nH]ccc23)C1,,"mouse, TMD8 tumour-bearing, plasma","30 mg/kg twice daily, 12 h",,trough concentration,0.113 ng/mL
CCCCN1C(=O)c2cccc3c(NCCCCCCN4CCOCC4)ccc(c23)C1=O,,dioxane,,,Stokes shift,85 nm
COc1cc(-c2nc3ccccc3s2)cc(CN2CCN(C)CCN(Cc3cc(-c4nc5ccccc5s4)cc(OC)c3O)CC2)c1O,UV-vis spectrophotometric titration,aqueous NaCl 0.1 M,"20 µM, 25 °C, pH 3 to 11",,pKa3,8.19
O=C1c2sc(-c3ccc(N4CCC(CO)CC4)nc3F)nc2CCN1c1cccnc1,,"CD1 mouse, plasma","i.v., dose not given, 0.5 h",,concentration,14.7 ng/mL and 21.8 ng/mL and 13.2 ng/mL
CN(C(=O)C(C)(C)c1cc(C(F)(F)F)cc(C(F)(F)F)c1)c1cnc(N2C[C@H]3COC(O)CN3C[C@H]2CO)cc1-c1ccc(F)cc1CO (stereo partly drawn),,human liver microsomes,,,fraction unbound in microsomes,0.589
COc1cccc(OC)c1-c1cc(C(=O)NC2(C(=O)O)C3CC4CC(C3)CC2C4)nn1-c1ccc(C(=O)NCCNC(=O)[C@H](CCCCNC(=O)[C@H](CC(C)C)NC(=O)C2OC2C(=O)O)NC(=O)CN2CCN(CC(=O)[O-])CCN(CC(=O)[O-])CCN(CC(=O)[O-])CC2)cc1C(C)C.[177Lu+3] (mixture of isomers),,"mouse HT-29 xenograft, large intestine","168 h post injection, biodistribution",,tissue uptake,0.19 %ID/g
[11CH3]N1CCC(NC(=O)c2cc(-c3c(O)cc(O)cc3Oc3ccc([N+](=O)[O-])cc3)on2)CC1,,"healthy female Wistar rats, kidneys","intravenous, 2 min",,standardized uptake value,17.3 ± 0.6 g/mL
CCCCN1C(=O)c2cccc3c(NCCCCCN4CCOCC4)ccc(c23)C1=O,,methanol,,,fluorescence quantum yield,1.16
CN([O-])C(=O)CN1CCNCCN(CC(=O)N(C)[O-])CC1.[89Zr+4],,"mouse, pancreas","intravenous, 24 h",,tracer uptake,0.05 %ID/g
COc1cccc(OC)c1-c1cc(C(=O)NC2(C(=O)O)C3CC4CC(C3)CC2C4)nn1-c1ccc(C(=O)N(C)CCOCCN(C)C(=O)[C@H](CCCCNC(=O)[C@H](CC(C)C)NC(=O)C2OC2C(=O)O)NC(=O)CN2CCN(CC(=O)[O-])CCN(CC(=O)[O-])CCN(CC(=O)[O-])CC2)cc1C(C)C.[177Lu+3] (mixture of isomers),,"mouse, HT-29 xenograft, brain",24 h post injection,,tissue uptake,0.17 %ID/g
CC(C)Cc1ccc(C(C)C(=O)N[C@@H](CCCCNC(=O)CCOCCOCCOCCOCCOCCOCCNC(=O)CN2CCN(CC(=O)[O-])CCN(CC(=O)[O-])CCN(CC(=O)[O-])CC2)C(=O)Nc2cccc3c(C(=O)NCC(=O)N4CC(F)(F)C[C@H]4C#N)ccnc23)cc1.[177Lu+3] (stereo partly drawn),,human serum,"4 h, 37 °C, 177Lu-labelled",,radiochemical stability,98.8 ± 1.5%
CNc1cc(C)c(C(N)=O)cn1,,"Han Wistar rats, male, plasma","oral, 30 mg/kg, 2.00 h",,plasma concentration,87400 nM
O=C1c2sc(-c3ccc(N4CCC(F)C4)nc3F)nc2CCN1c1cccnc1 (stereo not drawn),,"CD1 mouse, brain","i.v., dose not given, 1 h",,concentration,31.8 ng/g and 39.6 ng/g and 25.2 ng/g
C/C(N)=N/C(=N\S(=O)(=O)c1ccc(C(F)(F)F)cc1)N1C[C@H](c2ccccc2)C(c2ccc(Cl)cc2)=N1,,"Beagle dog, plasma","oral, 36 mg/kg, observed value",,Tmax,1 h
CC[C@H](C)[C@@H]1NC(=O)[C@H](Cc2ccc(O)cc2)NC(=O)CCCSC[C@@H](C(=O)N(CC(=O)N[C@@H](CC(C)C)C(=O)NCC(N)=O)Cc2ccc(F)cc2)NC(=O)[C@H](CC(N)=O)NC(=O)[C@H](CCC(N)=O)NC1=O,,"healthy human, plasma","intranasal, 50 µg every 3 h, after first dose",,terminal half-life,1.45 h
N#C[C@@H]1CC(F)(F)CN1C(=O)CNC(=O)c1ccnc2c(NC(=O)CCOCCOCCOCCOCCOCCOCCNC(=O)C(CCCCNC(=O)CN3CCN(CC(=O)[O-])CCN(CC(=O)[O-])CCN(CC(=O)[O-])CC3)NC(=O)CCCc3ccc(I)cc3)cccc12.[68Ga+3] (stereo partly drawn),,PBS,"120 min, 37 °C, 68Ga-labelled",,radiochemical stability,98.45 ± 0.5%
CNCc1ccc(-c2cc(=O)c3ccc4[nH]c(C(F)(F)F)nc4c3o2)cc1,,"ICR mice, plasma","oral, 5 mg/kg",,clearance,223 mL/min/kg
C=C(NC(=O)c1csc(-c2nc3c(cc2O)-c2nc(cs2)C(=O)NC(C(C)O)C(=O)NC(=C(C)OC)c2nc(cs2)C(=O)NC2c4nc(cs4)C(=O)NC(COC(=O)c4c5c6c(cccc6n4O)COC(=O)C(OC4CC(C)(O)C(N(C)C)C(C)O4)C2OC5)c2nc-3cs2)n1)C(N)=O (stereo not drawn),,"Sprague-Dawley rat, both sexes, plasma","intravenous infusion, 18 mg/kg single dose",,clearance,55.5 mL/min/kg
CCCCN1C(=O)c2cccc3c(NCCCN4CCOCC4)ccc(c23)C1=O,,methanol,,,Stokes shift,95 nm
N#C[C@@H]1CC(F)(F)CN1C(=O)CNC(=O)c1ccnc2c(NC(=O)[C@H](CCCCNC(=O)CCOCCOCCOCCOCCOCCOCCNC(=O)CN3CCN(CC(=O)[O-])CCN(CC(=O)[O-])CCN(CC(=O)[O-])CC3)NC(=O)CCCc3ccc(I)cc3)cccc12.[177Lu+3],,PBS,"24 h, 37 °C, 177Lu-labelled",,radiochemical stability,96.5 ± 4.8%
CCCCN1C(=O)c2cccc3c(NCCCCCCCCCCN4CCOCC4)ccc(c23)C1=O,,DMF,,,Stokes shift,81 nm
Cc1cc(C(=O)NC(C)(C)C(=O)O)cc(C)n1,LC-MS metabolite profiling,"Sprague-Dawley rat, both sexes, plasma","oral, 100 mg/kg of parent drug, 2 (unit not given)",higher = more metabolite,plasma peak area,26900 a.u.
O=C(Nc1cnccc1-c1ccc([18F])cc1)c1ccnc(NC(=O)C2CC2)c1,,"mice, transgenic, GSK-3β, early-stage, stomach","intravenous, dose not given, 120 min, together with: tariquidar 15 mg/kg i.v. pre-dose",,SUV,1.74
OCC1OC(n2cnc3c(NCc4ccc(Br)s4)ncnc32)C(O)C1O (stereo not drawn),,"beagle dog, blood","intravenous, 0.5 mg/kg",,Vd,16.3 L/kg

# Repeated from above:
SMILES,assay,system,setting,scale,endpoint,result
CC(C)Cc1ccc(C(C)C(=O)N[C@@H](CCCCNC(=O)CCOCCOCCOCCOCCOCCOCCNC(=O)CN2CCN(CC(=O)[O-])CCN(CC(=O)[O-])CCN(CC(=O)[O-])CC2)C(=O)Nc2cccc3c(C(=O)NCC(=O)N4CC(F)(F)C[C@H]4C#N)ccnc23)cc1.[177Lu+3] (stereo partly drawn),,human serum,"4 h, 37 °C, 177Lu-labelled",,radiochemical stability,98.8 ± 1.5%
C#CCCCC(F)/C=C/C(=O)NC1(c2ccc(-c3nc4ccn5c(=O)[nH]nc5c4cc3-c3ccccc3)cc2)CCC1 (stereo not drawn),,"microsomes, liver, mouse CD-1","1 µM, pH 7.4, 37 °C, phosphate buffer 100 mM, together with: NADPH",,first-order rate constant,-0.045 ± 0.004 min⁻¹
N#C[C@@H]1CC(F)(F)CN1C(=O)CNC(=O)c1ccnc2c(NC(=O)[C@@H](N)CCCCNC(=O)CCOCCOCCOCCOCCOCCOCCNC(=O)CN3CCN(CC(=O)[O-])CCN(CC(=O)[O-])CCN(CC(=O)[O-])CC3)cccc12.[177Lu+3],,human serum,"24 h, 37 °C, 177Lu-labelled",,radiochemical stability,99 ± 1.5%
O=C1c2sc(-c3ccc(N4CCC(F)C4)nc3F)nc2CCN1c1cccnc1 (stereo not drawn),,"CD1 mouse, brain","i.v., dose not given, 1 h",,concentration,31.8 ng/g and 39.6 ng/g and 25.2 ng/g
